# Experimental data pooled from the literature.
# Every numbered part comes from another study and shows a few of its results, in no order. Positions count from the first letter of the parent shown.

# Study 1
# Target: Sal-like protein 4, full length isoform A (SALL4, Homo sapiens, UniProt Q9UJQ4, residues 1-1053)
# Chain of UniProt Q9UJQ4 (whole entry, looked up): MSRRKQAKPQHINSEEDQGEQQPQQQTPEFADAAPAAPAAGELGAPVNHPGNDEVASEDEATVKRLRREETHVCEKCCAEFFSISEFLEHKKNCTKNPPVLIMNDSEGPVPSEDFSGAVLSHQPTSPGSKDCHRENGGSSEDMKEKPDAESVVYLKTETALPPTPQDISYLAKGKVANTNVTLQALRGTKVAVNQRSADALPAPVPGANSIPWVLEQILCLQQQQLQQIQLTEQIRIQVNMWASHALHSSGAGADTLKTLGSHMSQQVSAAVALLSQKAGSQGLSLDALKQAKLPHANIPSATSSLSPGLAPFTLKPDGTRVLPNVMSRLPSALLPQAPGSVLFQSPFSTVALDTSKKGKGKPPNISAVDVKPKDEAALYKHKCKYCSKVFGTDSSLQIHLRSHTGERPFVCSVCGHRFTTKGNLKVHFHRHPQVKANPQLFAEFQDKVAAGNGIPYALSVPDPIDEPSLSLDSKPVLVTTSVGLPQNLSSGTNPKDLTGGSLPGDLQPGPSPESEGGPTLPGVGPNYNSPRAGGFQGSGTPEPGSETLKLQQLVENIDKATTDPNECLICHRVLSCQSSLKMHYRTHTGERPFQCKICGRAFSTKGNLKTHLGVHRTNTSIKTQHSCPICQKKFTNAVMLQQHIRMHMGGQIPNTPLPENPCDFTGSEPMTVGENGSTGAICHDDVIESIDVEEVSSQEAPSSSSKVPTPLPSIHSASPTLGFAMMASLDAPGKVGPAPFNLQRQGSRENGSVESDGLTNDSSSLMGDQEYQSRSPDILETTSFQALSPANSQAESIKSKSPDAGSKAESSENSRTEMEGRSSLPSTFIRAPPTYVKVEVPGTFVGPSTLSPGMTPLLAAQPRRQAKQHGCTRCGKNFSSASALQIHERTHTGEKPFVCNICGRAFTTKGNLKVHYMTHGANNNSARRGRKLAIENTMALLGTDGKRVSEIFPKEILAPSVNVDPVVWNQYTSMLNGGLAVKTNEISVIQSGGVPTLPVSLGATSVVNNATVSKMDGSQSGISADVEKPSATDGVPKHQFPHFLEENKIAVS
# Technique: universal PBM
# Form: double-stranded DNA, one strand shown
# Sample: in vitro
# Concentration: 600 nM
# Notes: 8-mer, flanks averaged, mean of replicates
# Reading: higher = stronger binding
Oligonucleotide,E-score
AGACGGCT,-0.292
AGGGAGTC,-0.191
GCCGGAAC,-0.171
AAATAGCG,0.193

# Study 2
# Target: CCNB1, cyclin fold, Cln2 fusion (human)
# Technique: yeast growth competition, sequencing
# Sample: yeast
# Notes: weak parent motif
# Relative to: not given
# Reading: higher = stronger binding
# Starting sequence: HIRA docking peptide (human); SLSKRKLELEVET
Change,normalised enrichment score
SLSKKKLELEVET [R5K],0.214
SLAKRKLELEVET [S3A],-0.408
SLSKRKLELAVET [E10A],-0.165

# Other studies, line by line
Molecule,tested on,test,test system,setting,scale,endpoint,result
"RPRD2 (Homo sapiens, UniProt Q5VT52)","PFDN2 (Homo sapiens, UniProt Q9UHV9)",cross-linking MS,cell fractions,added: DSSO,,cross-linked residues,T216 to K113
"PhoQ, residues 284 288 289 292 302 303 SNSSNI","PhoP, residues 12 14 15 18 19 GQAIL (Escherichia coli, UniProt P23836)","Sort-seq, item: YFP reporter",E. coli,"PhoQ-PhoP variant library, added: 10 µM Mg2+","relative to: high Mg2+ state, higher = stronger signaling",fold induction,6.97
"COX7A2L (Homo sapiens, UniProt O14548)","UQCRC1 (Homo sapiens, UniProt P31930)",cross-linking MS,cell fractions,added: DMTMM,,cross-linked residues,K27 to E171
"RRP9 (Homo sapiens, UniProt O43818)","NGDN (Homo sapiens, UniProt Q8NEJ9)",cross-linking MS,cell fractions,added: DSSO,,cross-linked residues,K97 to K210
